Assay results pooled from the literature.
Each numbered part is a random draw from the data of one study; scales do not carry over between parts.

Sample 1
Target: Interferon regulatory factor 7, full length, phosphomimetic (IRF7, Homo sapiens, UniProt Q92985, residues 1-503, S101K/S471D/S472D/S475D/S476D/S477D/S483D/S484D/S487D)
Technique: protein-binding microarray
Form: double-stranded DNA, one strand shown
Matrix: in vitro
Concentration: 250 nM
Setting: 60-bp whole probe
Added: salmon DNA 0.4 mg/ml
Relative to: random background probes
Reading: higher = stronger binding
Measurement: log fluorescence
All sequences stand within: GCCTAGCAC … GTCTTGATTCGCTTGACGCTGCTG
Residues (chain): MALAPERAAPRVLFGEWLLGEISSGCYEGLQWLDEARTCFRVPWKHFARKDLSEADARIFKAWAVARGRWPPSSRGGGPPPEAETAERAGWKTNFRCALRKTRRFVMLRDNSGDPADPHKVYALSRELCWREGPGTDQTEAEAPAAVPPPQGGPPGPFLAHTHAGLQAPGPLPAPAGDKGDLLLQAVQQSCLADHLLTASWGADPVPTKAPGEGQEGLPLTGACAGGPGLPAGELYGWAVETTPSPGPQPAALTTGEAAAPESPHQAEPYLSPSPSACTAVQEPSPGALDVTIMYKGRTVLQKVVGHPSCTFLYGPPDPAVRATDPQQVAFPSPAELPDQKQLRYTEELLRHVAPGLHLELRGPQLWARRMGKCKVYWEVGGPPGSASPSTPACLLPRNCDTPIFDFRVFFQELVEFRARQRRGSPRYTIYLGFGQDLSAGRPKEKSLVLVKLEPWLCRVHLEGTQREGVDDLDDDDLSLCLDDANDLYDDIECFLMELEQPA
TCATGCTTGGGTCTGGGACTGTGCTAG: -0.587 z-score
GACGGTATCCTTATGCTGACGTGCTAG: -0.121 z-score
GGTTTTCTAATGTTTTTTAAAGTGCTA: 3.38 z-score
GACGAGATCAGTTTCGAGACGTGCTAG: 4.34 z-score
TTAGGTTCCGGTTTCAGTTAGTGCTAG: 7.97 z-score

Sample 2
Target: RNA binding protein fox-1 homolog 2, RRM domain, GST-SBP tag (RBFOX2, Homo sapiens, UniProt O43251-10, residues 100-194)
Technique: RNA Bind-n-Seq
Form: RNA
Matrix: in vitro
Concentration: 365 nM
Setting: natural RNA segment, single round, ends assumed
Relative to: no-protein control
Reading: higher = stronger binding
Measurement: RBNS enrichment (R)
All sequences stand within: GGGAGUUCUACAGUCCGACGAUC … UGGAAUUCUCGGGUGCCAA
UUAUGGGUUGGCUUGGUUUGGUUUUUCUUAGCACCACCUGGGAUCACAGAGGCUCCUAAGAUACAUGAGACCUUUGCAGUGUUUUCUCUCCACCUUCUGAGACAGAGGGA: 0.51
UUCUUGGAAACAAUGACAUUAAACAUAGAUUUGUGCCUUUGUGGCUCAGCCUGCUCUUUCAUAGUCAAGCUUGCUCAUUUAAUUUUUUUAUAAUCAUAUCCAGUAAACGG: 0.448
CAGCACUUGGAAUUGUGUGUUCUUGUACAUUUUGUAUUUUAAAACCUUUUAUGGGAGUGCAGUGCUCCUUACACAAAUACAAAGGGAAGAAGAGCCAGCAGUUGAGGCUC: 0.696
UAUAGCUGUGGCUCAUGCUACCCAAUUCCAGAUUUCUUUGUCCUCUAAGAGUUGAUUGCUGUAUAUUAAAAUUGAACAUCAGAGGAUGGGAAGAGGGCUCUGUAAGCCAG: 0.751
AUGUACCUCUCUAGUGAAGUAGAUGCGCAAACAUUCAGUGACAGCAAAUCAGUGUUAGUGACAAGCCCCGACCGUGGCGAUGUGCUGGAAAACACGGACCUUUUGGGUUA: 0.4
CCCUCCAUGAAGUCAGUGCCAGAGUGAGCCAGAUUGGGAGGUUGGGGUUUUGUUUGGUUGGCUUGGUUUUCAUUAAGGGAAAAAACUUGCAUUGGACAAUCAAAUUCCCC: 0.87

Sample 3
Target: Phosphate system positive regulatory protein PHO4, full length, GST-tagged (PHO4, Saccharomyces cerevisiae, UniProt P07270, residues 1-312)
Technique: competition protein-binding microarray
Form: double-stranded DNA, one strand shown
Matrix: in vitro
Concentration: 2 µM
Setting: whole 60-bp probe, lowest competitor level
Added: Cbf1 competitor, 0.05 µM
Reading: higher = stronger binding
Measurement: fluorescence intensity
All sequences stand within: … GTCTTGATTCGCTTGACGCTGCTG
Target sequence (chain): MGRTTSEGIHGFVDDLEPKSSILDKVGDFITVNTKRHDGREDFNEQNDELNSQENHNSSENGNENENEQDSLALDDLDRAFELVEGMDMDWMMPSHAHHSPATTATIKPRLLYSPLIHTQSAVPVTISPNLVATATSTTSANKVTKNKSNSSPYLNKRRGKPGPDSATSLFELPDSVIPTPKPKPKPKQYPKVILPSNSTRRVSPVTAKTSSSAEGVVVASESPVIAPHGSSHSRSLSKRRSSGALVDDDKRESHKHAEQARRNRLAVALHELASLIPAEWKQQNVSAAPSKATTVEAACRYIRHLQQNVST
CTAACGAAGGTTTGTTGCGTGGGTGACAAGCCAAGT: 6340 a.u.
CGGGGTTAAGTTTGTCACGCCACTTGCTTGCAGCAG: 5750 a.u.
TCGTCAGGACAAATGAACGTGGTCGATCCTCCGCCG: 11000 a.u.
TGTAAATGATGATAACGTAAAAGCACTGTTGATAAT: 4200 a.u.
TGGCCCTTTCACCAACACGTGCCAGTTTCCAGAAGG: 16900 a.u.
CTTCTGTAAATTTGTTCCGTGGGTGGACGCGCCCCG: 4840 a.u.

Other studies, line by line
PhoQ, residues 284 288 289 292 302 303 SLKLQV — fold induction (PhoP, residues 12 14 15 18 19 HLGGL (Escherichia coli, UniProt P23836); Sort-seq, item: YFP reporter; E. coli; PhoQ-PhoP variant library, added: 10 µM Mg2+; relative to: high Mg2+ state, higher = stronger signaling): 0.771

A few entries again (sample 2):
CAGCACUUGGAAUUGUGUGUUCUUGUACAUUUUGUAUUUUAAAACCUUUUAUGGGAGUGCAGUGCUCCUUACACAAAUACAAAGGGAAGAAGAGCCAGCAGUUGAGGCUC: 0.696
AUGUACCUCUCUAGUGAAGUAGAUGCGCAAACAUUCAGUGACAGCAAAUCAGUGUUAGUGACAAGCCCCGACCGUGGCGAUGUGCUGGAAAACACGGACCUUUUGGGUUA: 0.4
UUCUUGGAAACAAUGACAUUAAACAUAGAUUUGUGCCUUUGUGGCUCAGCCUGCUCUUUCAUAGUCAAGCUUGCUCAUUUAAUUUUUUUAUAAUCAUAUCCAGUAAACGG: 0.448
